Assay results from different studies.
Protocols differ between the studies behind these lines.
FGFR3: Fibroblast growth factor receptor 3 (FGFR3, Homo sapiens, UniProt P22607)
FGFR3 G697C: Fibroblast growth factor receptor 3 (FGFR3, Homo sapiens, UniProt P22607, G697C)

SMILES	target	effect on	method	concentration	reference	remaining binding [%]
CN1CCN(Cc2ccc(NC(=O)c3cccc(C#Cc4cnc(N)c5ncccc45)c3)cc2C(F)(F)F)CC1	FGFR3	cell-free assay	competition with immobilised ligand	50 nM		18
Cc1ccc(-c2c(/C=C(\C#N)C(=O)NC(C)C)n(CCCO)c3ncnc(N)c23)cc1	FGFR3 G697C	cell-free assay	competition with immobilised ligand	1 µM		100
CCN1CCN(Cc2ccc(C(=O)Nc3ccc(C)c(NCc4cnc5[nH]ccc5c4OC)c3)cc2C(F)(F)F)CC1	FGFR3 G697C	binding	competition with immobilised ligand	1 µM		42
CC(C)=CC1OC(C)(C)C2C=C3C(=O)C(Cl)=CC(O)C3C3C(O)C4OC4C(=O)C132 (stereo not shown)	FGFR3 G697C	cell-free assay	competition with immobilised ligand	10 µM		87
Nc1ncc2c(n1)-c1c([nH]c3ccc(C4=CCOCC4)cc13)CCC2	FGFR3 G697C	binding	competition with immobilised ligand	1 µM		100
Cc1cnc2nc1Nc1cccc(c1)COC/C=C/COCc1cc(ccc1OCCN1CCOCC1)N2	FGFR3	binding		0.1 µM		87
CC(=O)N1c2ccc(-c3ccc(CNC(=O)c4cn5cc(-c6cnc(N)nc6)nc(N6CCOCC6)c5n4)cc3)cc2CC[C@@H]1C	FGFR3		KINOMEscan	10 µM		100
C=CC(=O)N1CCc2ccc(-n3c(=O)ccc4cnc5ccc(-c6cnn(C)c6)cc5c43)cc21	FGFR3 G697C		KINOMEscan	1 µM	DMSO control	100
COc1ccc(NC(=O)Nc2ccc3c(c2)C(=O)N(C(C)CO)CC(C)C(CN(C)Cc2ccc4c(c2)OCO4)O3)cc1 (stereo not shown)	FGFR3	binding	competition with immobilised ligand	10 µM		56
CNC1C[S+]2CC[S+]3CC[S+](C1)[Ru-4]321([N]=C=S)[n]2c3ccc(OC)cc3c3c4c(c5cc(F)c[n+]1c5c32)C(=O)NC4=O (stereo not shown)	FGFR3		KinomeScan	0.1 µM	untreated	92
CNC(=O)C1CCN(c2cc(C)c(F)cc2NC(=O)c2ccc(-c3cc(O)ccc3C)c(C)c2)CC1	FGFR3	binding	competition with immobilised ligand	1 µM		100
COc1c(Cl)cccc1Nc1c(-c2ccncc2C#C[C@@]2(C)CCCN2C(=O)/C=C/CN(C)C)[nH]c2c1C(=O)NCC2	FGFR3 G697C	cell-free assay	competition with immobilised ligand	3 µM		89
C=CC(=O)N1CCCC(n2c(=O)c3ncccc3n(Cc3ccc(Oc4ccccc4)cc3)c2=O)C1 (stereo not shown)	FGFR3 G697C	cell-free assay	competition with immobilised ligand	1 µM		85

Excerpt of the above:
SMILES	target	effect on	method	concentration	reference	remaining binding [%]
C=CC(=O)N1CCc2ccc(-n3c(=O)ccc4cnc5ccc(-c6cnn(C)c6)cc5c43)cc21	FGFR3 G697C		KINOMEscan	1 µM	DMSO control	100
